Assay results gathered from unrelated publications.
Each line is one published result; not all experiments were run side by side. ± gives the spread as reported.
Target: Muscarinic acetylcholine receptor M2 (CHRM2, Homo sapiens, UniProt P08172)
UniProt P08172, sequence (whole entry, looked up): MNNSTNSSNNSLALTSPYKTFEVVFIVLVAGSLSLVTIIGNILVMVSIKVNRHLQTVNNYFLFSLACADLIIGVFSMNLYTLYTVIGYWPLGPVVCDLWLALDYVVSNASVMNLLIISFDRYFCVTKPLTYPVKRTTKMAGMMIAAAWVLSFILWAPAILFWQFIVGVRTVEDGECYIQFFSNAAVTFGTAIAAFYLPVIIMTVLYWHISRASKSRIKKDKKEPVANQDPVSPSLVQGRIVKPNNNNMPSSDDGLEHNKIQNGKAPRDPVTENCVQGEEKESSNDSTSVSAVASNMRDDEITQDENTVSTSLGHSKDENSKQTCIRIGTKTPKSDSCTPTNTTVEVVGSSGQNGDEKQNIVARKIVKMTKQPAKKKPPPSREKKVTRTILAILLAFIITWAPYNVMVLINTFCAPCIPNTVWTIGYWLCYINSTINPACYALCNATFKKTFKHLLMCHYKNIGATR

For `O=C1c2sc(-c3ccc(N4CCC(CO)CC4)nc3F)nc2CCN1c1cccnc1`, the inhibition was -4% (ligand displacement, radioligand; 1 µM).
`COc1ccc(S(=O)(=O)N2CCc3ccccc3C2)cc1N1CCN(C(=O)c2ccc(F)cc2C(F)(F)F)CC1` gave an inhibition of -5.1% (ligand displacement, radioligand; 1 µM).
`CO[C@@H](C)c1c(NC(=O)Nc2cnc(-n3nccn3)c(C(F)(F)F)c2)cnc2sc(C)nc12` has an inhibition of 8.3% (ligand displacement, radioligand; 10 µM).
`Cc1cccc(O[C@H]2CCC[C@@H](C(C)CNCc3ccncc3)C2)c1` (relative stereo) gave an inhibition of 79% (ligand displacement; 10 µM).
The basal binding of `CCCCOc1ccc(C(=O)OCCN2CC=CCC2)cc1` is reported as 1.13 ± 0.05 fold (membranes; 1 µM, 15 h, no carbachol; reference: control).
For `C=CCn1c(=O)c2ccccc2n2c(SCC(=O)Nc3ccc(NC(C)=O)cc3)nnc12`, the Emax was 280 ± 27% (receptor activation, agonist; concentration not given, 16 h).
The inhibition of `CCC(=O)N(C)c1ccc(Cl)c(Cl)c1` is reported as < 10% (ligand displacement, radioligand; 10 µM).
The Emax of `C=CCn1c(=O)c2ccccc2n2c(SC3CCOC3=O)nnc12` (stereo not shown) is reported as 244 ± 38% (receptor activation, agonist; concentration not given, 16 h).
`CCCCCCOc1ccc(C(=O)OCC[N+]2(C)CC=CCC2)cc1` (stereo not shown) has a basal binding of 1.1 ± 0.06 fold (membranes; 10 µM, 15 h, no carbachol; reference: control).
`Brc1ccccc1-c1nnc(CSc2nnnn2-c2ccccc2)o1` has an inhibition of 10% (ligand displacement, radioligand; 10 µM).
The basal binding of `CCCCCCOc1ccc(C(=O)OCCN2CC=CCC2)cc1` is reported as 1.9 ± 0.3 fold (membranes; 1 µM, 15 h, no carbachol; reference: control).
The activation of `COc1ncc2nc(C)n(Cc3ncc(S(N)(=O)=O)cc3F)c2c1-c1ccccc1` is reported as 8.7% (agonist, cell-based; 10 µM).
With `C[Si](C)(C)C[C@@H](CN)CC(=O)O` the inhibition was -2% (ligand displacement, radioligand; 75 µM).
With `COc1ccc(C#CC2=C[C@H]3C[C@@]4(OC(=O)C=C24)[C@H]2CC[C@H](C(OC)OC)N32)cc1` the inhibition was 1% (ligand displacement, radioligand; 10 µM).
For `CCCCOc1ccc(C(=O)OCC[N+]2(C)CC=CCC2)cc1` (stereo not shown), the basal binding was 1.17 ± 0.06 fold (membranes; 100 µM, 15 h, no carbachol; reference: control).
For `C=CCn1c(=O)c2ccccc2n2c(SCC(=O)NC3CC3)nnc12`, the Emax was 258 ± 20% (receptor activation, agonist; concentration not given, 16 h).
